Results gathered from unrelated publications.
Protocols differ between the studies behind these lines. Numbers after ± are the reported error. ≈ marks a conversion by molar mass, not a printed value.

| Structure (SMILES) | test | test system | conditions | scale | endpoint | result |
| --- | --- | --- | --- | --- | --- | --- |
| Cc1ccc2[nH]c(=O)c(CC(=O)O)c(-c3ccccc3)c2c1 | potentiometric, initial protocol |  | neutral species |  | logP | 3.97 |
| CC(C)=CCC[C@](C)(O[C@@H]1O[C@H](CO)[C@@H](O)[C@H](O)[C@H]1O)[C@H]1CC[C@]2(C)[C@@H]1[C@H](O)C[C@@H]1[C@@]3(C)CC[C@H](O)C(C)(C)[C@@H]3[C@@H](O[C@@H]3O[C@H](CO)[C@@H](O)[C@H](O)[C@H]3O[C@@H]3O[C@@H](C)[C@H](O)[C@@H](O)[C@H]3O)C[C@]12C |  | Sprague Dawley rat, male, plasma | oral, 45 mg/kg, in white ginseng extract |  | AUC(0-36 h) | 2200 ± 400 ng·h/mL |
| Cc1ccc(NC(=O)c2ccc(CN3CCN(C)CC3)cc2)cc1Nc1nccc(-c2cncc(-c3oncc3C)c2)n1 |  | Parkinson's disease patients, plasma | oral, 50.0 mg once daily, day 1, 7-day dosing, mean |  | dose-normalised Cmax | 34.3 ng/mL/mg |
| Nc1ccn([C@@H]2O[C@H](CO)[C@@H](O)C2(F)F)c(=O)n1 |  | extracted rat plasma | 125.00 ng/mL, 8 h, 10 °C, autosampler stability, mid QC |  | measured concentration | 136 ± 1.8 ng/mL |
| NC(=O)OCC(COC(N)=O)c1ccccc1 |  | Sprague-Dawley rat, male, liver | oral, 300 mg/kg, 6 h, single low dose | direction not given | hepatocyte necrosis score | 0 |
| CO[C@H]1C[C@@H]2CC[C@@H](C)[C@@](O)(O2)C(=O)C(=O)N2CCCC[C@H]2C(=O)O[C@H]([C@H](C)C[C@@H]2CC[C@@H](OP(C)(C)=O)[C@H](OC)C2)CC(=O)[C@H](C)/C=C(\C)[C@@H](O)[C@@H](OC)C(=O)[C@H](C)C[C@H](C)/C=C/C=C/C=C/1C | ELISA | human, serum | dose not given |  | dalotuzumab trough serum concentration | no effect |
| COc1ccc(-c2oc3c(OC)c(OC)cc(O)c3c(=O)c2OC)cc1OC |  | C57BL/6 mouse, male, small intestine | oral, 1% w/w in diet, 6 weeks, orange peel extract diet | relative to: content in orange peel | tissue to peel content ratio | 25% |
| CC(C)C[C@H](NC(=O)[C@H](CC(C)C)NC(=O)[C@@H](NC(=O)[C@H](Cc1ccccc1)NC(=O)[C@@H](Cc1c[nH]c2ccccc12)NC(=O)[C@@H](N)CCCCN)[C@H](c1ccccc1)c1c[nH]c2ccccc12)C(N)=O | RP-HPLC Kinetex Biphenyl |  | acetonitrile/water TFA gradient |  | HPLC retention | 44.3 %B |
| CC[C@H](C)[C@H](NC(=O)[C@H](Cc1ccccc1)NC(=O)[C@H](CC(=O)O)NC(=O)[C@H](CCCNC(=N)N)NC(=O)[C@H](C)NC(=O)[C@H](C)NC(=O)[C@H](CC(C)C)NC(=O)[C@H](CC(N)=O)NC(=O)[C@H](CC(=O)O)NC(=O)[C@H](CC(C)C)NC(=O)[C@@H](NC(=O)[C@@H](NC(=O)[C@H](CC(N)=O)NC(=O)[C@H](CCSC)NC(=O)[C@H](CCC(=O)O)NC(=O)[C@H](CC(=O)O)NC(=O)[C@H](CO)NC(=O)[C@H](Cc1ccccc1)NC(=O)[C@H](CO)NC(=O)CNC(=O)[C@H](CC(=O)O)NC(=O)CNC(=O)[C@@H](N)Cc1c[nH]cn1)[C@@H](C)O)[C@@H](C)CC)C(=O)N[C@@H](CC(N)=O)C(=O)N[C@@H](Cc1c[nH]c2ccccc12)C(=O)N[C@@H](CC(C)C)C(=O)N[C@H](C(=O)N[C@@H](CCC(N)=O)C(=O)N[C@H](C(=O)N[C@@H](CCCCN)C(=O)N[C@H](C(=O)N[C@H](C(=O)N[C@@H](CC(=O)O)C(=O)O)[C@@H](C)O)[C@@H](C)CC)[C@@H](C)O)[C@@H](C)CC |  | Japanese paediatric patients | subcutaneous, 0.05 mg/kg | relative to: non-Japanese paediatric patients | AUCss difference | ≤ 20% |
| O=C(O)/C=C/c1ccccc1 |  | rat plasma QC sample | 1024 ng/mL nominal, 24 h, high QC level autosampler stability |  | measured concentration | 1010 ± 62.9 ng/mL |
| O=S(=O)(c1cccc2cnccc12)N1CCCNCC1 |  | rat sham control, isolated perfused lung | pulmonary artery, 3 mg/kg, 2 h |  | recovered dose in apparatus | 8.7 ± 2.2% |
| CC(C)NC[C@@H](C(=O)N1CCN(c2ncnc3c2[C@H](C)C[C@H]3O)CC1)c1ccc(Cl)cc1 |  | human, hepatic impairment Severe (Child-Pugh), plasma | oral, 100 mg single, geometric mean |  | AUC(0-72) | 632 ng·h/mL |
| COc1cc2c(cc1OC)CN(CCc1ccc(NC(=O)c3cccc4c(=O)c5cccc(OC)c5[nH]c34)cc1)CC2 |  | Cremophor EL | 24 h, 37 °C |  | solubility | 4270 ± 310 µg/mL (≈ 7.58 mM) |
| CN1CC[C@@H](NC(=O)Nc2ccc(C#N)cc2)C[C@@H]1c1nc2ccccc2[nH]1 |  | human, severe hepatic impairment, fasted, plasma | oral, 100 mg single dose, geometric mean, fu × total |  | unbound Cmax | 65 ng/mL |
| CC[C@H](C)[C@@H]1NC(=O)[C@H](Cc2ccc(O)cc2)NC(=O)[C@@H](N)CSSC[C@@H](C(=O)N2CCC[C@H]2C(=O)N[C@@H](CC(C)C)C(=O)NCC(N)=O)NC(=O)[C@H](CC(N)=O)NC(=O)[C@H](CCC(N)=O)NC1=O | microdialysis, radioimmunoassay | knock-out male mice lacking compound, hippocampus extracellular fluid | intraperitoneal, 12 µg total, incremental area over baseline |  | AUC above baseline | 86.7 ± 38.8 pg·30 min/sample |
| O=C(CCCCCCC(=O)Nc1ccccc1)NO |  | patients, serum | oral, 400 mg, cycle -1, alone |  | AUC(0-7 h) | 8.06 µM·h |
| O=C(/C=C/c1cccc(S(=O)(=O)Nc2ccccc2)c1)NO |  | human severe liver dysfunction, plasma | intravenous, 400 mg/m^2, 30 min infusion, cycle 1 day -7 |  | volume of distribution steady-state | 29.6 L/m² |
| CC(C)[C@H](NC(=O)[C@@H]1CCCN1C(=O)[C@H](CCCNC(=N)N)NC(=O)[C@H](CS)NC(=O)[C@H](Cc1c[nH]c2ccccc12)NC(=O)[C@H](CCCNC(=N)N)NC(=O)[C@@H](Cc1ccccc1)NC(=O)[C@H](Cc1c[nH]cn1)NC(=O)[C@H](CCC(=O)O)NC(=O)[C@H](CS)NC(=O)[C@H](CS)NC(=O)[C@H](CCCCN)NC(=O)[C@@H]1CC(=O)N[C@@H](CCCNC(=N)N)C(=O)N[C@@H]([C@@H](C)O)C(=O)N[C@@H](CC(=O)O)C(=O)N[C@H](Cc2ccc(O)cc2)C(=O)N1)C(N)=O [technetium-99m labelled] |  | C57 mouse, female, B16/F1 melanoma, bone | intravenous, 2 h, added: NDP-MSH 10 µg co-injected |  | tissue uptake | 0.91 ± 0.59 %ID/g |

| Structure (SMILES) | test | test system | conditions | scale | endpoint | result |
| --- | --- | --- | --- | --- | --- | --- |
| Cc1nc2cccc(OCC(C)(C)C(=O)NC(C)C)c2c(N)c1C(=O)O |  | male Sprague-Dawley rat, plasma | intravenous, 1 mg/kg, single dose |  | Cmax | 2040 ng/mL |
| O=C(c1ccc(OCCN2CCCCC2)cc1)c1c(-c2ccc(O)cc2)sc2cc(O)ccc12 |  | healthy humans, plasma | oral, 60 mg, added: acute green tea |  | AUC(0-48 h) | 0.00591 µM·h |
| C#Cc1cccc(Nc2ncnc3cc(OCCOC)c(OCCOC)cc23)c1 |  | NOD/SCID mouse, male, whole blood or plasma | oral, 12.5 mg/kg every 12 h, day 1 |  | terminal half-life | 3.1 h |
| COc1ccc(-c2nc(OCC(F)(F)F)nn2-c2ccc(OC)cc2)cc1 [carbon-11 labelled] | PET | rhesus monkey, whole brain | iv, dose not given, baseline |  | time to peak brain radioactivity | 9 min |
| Cc1cccc(C)c1OCC(=O)N[C@@H](Cc1ccccc1)[C@@H](O)C[C@H](Cc1ccccc1)NC(=O)[C@H](C(C)C)N1CCCNC1=O | modified PAMPA Franz cell | phosphate buffer with HPMCAS | stock 5 mg/mL, 3 h, 25 °C, 254 nm particles, 300 rpm, added: 3% BSA receiver |  | particle permeability | 7.9 ± 0.2 ×10⁻⁶ cm/s |
| CCCC[C@H](NC(C)=O)C(=O)N[C@H]1CCC(=O)NC[C@@H](C(=O)N[C@@H](Cc2c[nH]c3ccccc23)C(N)=O)NC(=O)[C@H](CCCNC(=N)N)NC(=O)[C@@H](Cc2ccccc2)NC(=O)[C@H](Cc2c[nH]cn2)NC1=O |  | beagle dog, male, plasma | subcutaneous, 40.0 mg/kg daily, day 1 |  | AUC(0-last) | 2640 ng·h/mL |
| CCCCCCCC(=O)OC[C@H](NC(=O)[C@H](CO)NC(=O)CN)C(=O)N[C@H](C(=O)N[C@@H](CC(C)C)C(=O)N[C@@H](CO)C(=O)N1CCC[C@H]1C(=O)N[C@@H](CCC(=O)O)C(=O)N[C@@H](Cc1c[nH]cn1)C(=O)N[C@@H](CCC(N)=O)C(=O)N[C@@H](CCCNC(=N)N)C(=O)N[C@H](C(=O)N[C@@H](CCC(N)=O)C(=O)N[C@@H](CCC(N)=O)C(=O)N[C@@H](CCCNC(=N)N)C(=O)N[C@@H](CCCCN)C(=O)N[C@@H](CCC(=O)O)C(=O)N[C@@H](CO)C(=O)N[C@@H](CCCCN)C(=O)N[C@@H](CCCCN)C(=O)N1CCC[C@H]1C(=O)N1CCC[C@H]1C(=O)N[C@@H](C)C(=O)N[C@@H](CCCCN)C(=O)N[C@@H](CC(C)C)C(=O)N[C@@H](CCC(N)=O)C(=O)N1CCC[C@H]1C(=O)N[C@@H](CCCNC(=N)N)C(=O)O)C(C)C)[C@H](c1ccccc1)c1c[nH]c2ccccc12 | RP-HPLC Kinetex Biphenyl |  | acetonitrile/water TFA gradient |  | HPLC retention | 33 %B |
| CNCc1ccc(-c2[nH]c3cc(F)cc4c3c2CCNC4=O)cc1 |  | human cancer patients, plasma | intravenous, 18 mg/m2, day 1, added: temozolomide 200 |  | volume of distribution | 378 L |
| COc1cc2c(cc1OC)[C@@H]1Cc3ccc(OC)c(OC)c3CN1CC2 |  | rat plasma QC sample | 640 ng/mL nominal, 24 h, medium QC level autosampler stability |  | measured concentration | 639 ± 13.5 ng/mL |
| CN[C@H](CC(C)C)C(=O)N[C@H]1C(=O)N[C@@H](CC(N)=O)C(=O)N[C@H]2C(=O)N[C@H]3C(=O)N[C@H](C(=O)N[C@H](C(=O)O)c4cc(O)cc(O)c4-c4cc3ccc4O)[C@H](O)c3ccc(c(Cl)c3)Oc3cc2cc(c3O[C@@H]2O[C@H](CO)[C@@H](O)[C@H](O)[C@H]2O[C@H]2C[C@](C)(N)[C@H](O)[C@H](C)O2)Oc2ccc(cc2Cl)[C@H]1O |  | Sprague-Dawley rat, plasma | intraperitoneal, 150 mg/kg, of 24 h AUC |  | AUC fraction within 6 h | > 90% |
| CCCSc1nc(N[C@@H]2C[C@H]2c2ccc(F)c(F)c2)c2nnn([C@@H]3C[C@H](OCCO)[C@@H](O)[C@H]3O)c2n1 |  | female Wistar Han rats, plasma | oral, 60 mg/kg/day, week 26, carcinogenicity study |  | AUC | 131 µM·h |
| C[N+]1(CC(=O)OC2CCCCC2)CCCCC1.[I-] | metabolic stability | human, liver microsomes | 1 µM, pH 7.4 |  | half-life | > 1 h |
| CC(C)C[C@@H]1NC(=O)CN(C)C(=O)[C@H](Cc2ccccc2)NCc2cc(c[nH]2)CNC1=O |  | PAMPA | 100 µM, 17 h, pH 6.4 |  | Papp | 0.174 ×10⁻⁶ cm/s |
| C[C@]12CC[C@@H]3c4ccc(O)cc4CC[C@H]3[C@@H]1C[C@@H](O)[C@@H]2O | GC-MS | breast cancer women on NSAI, serum | vaginal, 0.03 mg daily, 0.5 h, day 28 |  | mean serum concentration | 0.00158 ng/mL |
| CC1=C2C[C@H]3[C@@H](CC[C@@H]4C[C@H](NS(C)(=O)=O)CC[C@@]43C)[C@@H]2CC[C@@]2(C1)O[C@@H]1C[C@H](C)CN[C@H]1[C@H]2C |  | patients, plasma | oral, 30 mg daily, day 22, cycle 1 |  | AUC(0-24) | 508 ng·h/mL |
| N=C(N)NCCC[C@H](N)C(=O)N1CCC[C@H]1C(=O)N1CCC[C@H]1C(=O)NCC(=O)N[C@@H](Cc1ccccc1)C(=O)N[C@@H](CO)C(=O)N1CCC[C@H]1C(=O)N[C@@H](Cc1ccccc1)C(=O)O | LC-MS/MS | human serum | concentration not given, 4 h, room temperature, tube with gel separator | relative to: initial concentration | change in serum concentration | -82.9 ± 3% |
| COc1cccc2c1C(=O)c1c(O)c3c(c(O)c1C2=O)C[C@@](O)(C(=O)CO)C[C@@H]3O[C@H]1C[C@H](N)[C@H](O)[C@H](C)O1 |  | mouse, E0771 tumour-bearing, kidney | intravenous, 92 µmol/kg |  | terminal half-life | 36 h |

Excerpt of the above:
| Structure (SMILES) | test | test system | conditions | scale | endpoint | result |
| --- | --- | --- | --- | --- | --- | --- |
| Cc1nc2cccc(OCC(C)(C)C(=O)NC(C)C)c2c(N)c1C(=O)O |  | male Sprague-Dawley rat, plasma | intravenous, 1 mg/kg, single dose |  | Cmax | 2040 ng/mL |
| O=C(c1ccc(OCCN2CCCCC2)cc1)c1c(-c2ccc(O)cc2)sc2cc(O)ccc12 |  | healthy humans, plasma | oral, 60 mg, added: acute green tea |  | AUC(0-48 h) | 0.00591 µM·h |
| C#Cc1cccc(Nc2ncnc3cc(OCCOC)c(OCCOC)cc23)c1 |  | NOD/SCID mouse, male, whole blood or plasma | oral, 12.5 mg/kg every 12 h, day 1 |  | terminal half-life | 3.1 h |
